Assay results pooled from the literature.
Each line is one published result; not all experiments were run side by side.
Cell line: M14
Method: SRB

SMILES | assay | conditions | how to read | measurement | value
CC(=O)OC[C@H]1O[C@@H](Sc2sc(C(=O)c3ccc(C)cc3)c(N)c2-c2nc3ccccc3s2)[C@H](OC(C)=O)[C@@H](OC(C)=O)[C@@H]1OC(C)=O |  | 10 µM, 48 h | baseline: untreated | growth | 65.7%
CC(=O)c1cccc(NC2C(N)C(NC(=O)N(C)C)(C(C)O)C(O)C2(O)COC(=O)c2c(C)cccc2O)c1 (stereo not drawn) | cell growth or viability |  |  | GI50 | 100 nM
CC(=C(c1ccc(O)cc1)c1ccc(Cl)cc1)c1ccc(Cl)cc1 | cell growth or viability |  |  | GI50 | 700 nM
CC/C=C\C/C=C\C/C=C\C/C=C\C/C=C\C/C=C\CCC(=O)Nc1ccn(C2OC(CO)C(O)C2(F)F)c(=O)n1 (stereo not drawn) | cell growth or viability |  |  | GI50 | 24.3 nM
O=C1Nc2ccccc2/C1=N\Nc1nnc2n1N=C(c1ccc(Cl)cc1)CS2 | cell growth or viability | 10 µM |  | inhibition | 14%
CCC(=C(c1ccc(Cl)cc1)c1ccc(OCCCN(C)C)cc1)c1ccc(OC)cc1 | cell growth or viability |  |  | GI50 | 970 nM
CC(=O)OC[C@H]1O[C@@H](Sc2sc(C(=O)c3ccc(Br)cc3)c(N)c2-c2nc3ccccc3s2)[C@H](OC(C)=O)[C@@H](OC(C)=O)[C@@H]1OC(C)=O |  | 10 µM, 48 h | baseline: untreated | growth | 61.6%
CC(=O)OCC1(O)C(Nc2cccc(C(C)=O)c2)C(N)C(NC(=O)N(C)C)(C(C)OC(C)=O)C1(C)O (stereo not drawn) | cell growth or viability |  |  | GI50 | 680 nM
COc1ccc(C2=Nn3c(NN=C4C(=O)N(Cc5ccccc5)c5ccc(Cl)cc54)nnc3SC2)cc1 | cell growth or viability | 10 µM |  | inhibition | 29%

Repeated from above:
SMILES | assay | conditions | how to read | measurement | value
CC(=O)c1cccc(NC2C(N)C(NC(=O)N(C)C)(C(C)O)C(O)C2(O)COC(=O)c2c(C)cccc2O)c1 (stereo not drawn) | cell growth or viability |  |  | GI50 | 100 nM
